Measurements gathered from unrelated publications.
Values joined by “and” are separate records of one study, mostly repeats; a detail may differ. ± marks the error that the study gave. Where no end group is shown, it is not given here. [ ]: non-standard residue; d: D form.
HLA class I histocompatibility antigen, A alpha chain allele A*24:02: HLA class I histocompatibility antigen, A alpha chain, allele A*24:02 (Homo sapiens, UniProt P04439)
HLA class I histocompatibility antigen, A alpha chain allele A*02:01: HLA class I histocompatibility antigen, A alpha chain, allele A*02:01 (Homo sapiens, UniProt P04439)
SCRIB PDZ3 domain: Protein scribble homolog, PDZ3 domain (SCRIB, Homo sapiens, UniProt Q14160)
Chain of UniProt Q64663 (whole entry, unmodified, looked up): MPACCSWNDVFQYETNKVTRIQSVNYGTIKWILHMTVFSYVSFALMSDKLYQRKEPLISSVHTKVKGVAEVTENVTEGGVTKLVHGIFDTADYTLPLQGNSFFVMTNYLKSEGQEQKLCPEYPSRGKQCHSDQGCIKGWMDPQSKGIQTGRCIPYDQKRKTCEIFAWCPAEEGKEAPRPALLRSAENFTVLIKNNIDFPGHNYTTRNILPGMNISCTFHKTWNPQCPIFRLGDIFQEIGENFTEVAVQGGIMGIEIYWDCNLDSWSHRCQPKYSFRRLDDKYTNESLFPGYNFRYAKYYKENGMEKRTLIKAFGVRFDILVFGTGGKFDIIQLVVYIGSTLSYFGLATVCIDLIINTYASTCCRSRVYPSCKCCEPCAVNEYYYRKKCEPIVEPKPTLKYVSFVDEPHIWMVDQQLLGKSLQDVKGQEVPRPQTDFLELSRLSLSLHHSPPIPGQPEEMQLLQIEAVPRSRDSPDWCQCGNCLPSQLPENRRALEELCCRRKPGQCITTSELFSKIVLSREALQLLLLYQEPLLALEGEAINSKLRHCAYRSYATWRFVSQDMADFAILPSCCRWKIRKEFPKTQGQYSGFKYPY
Chain of UniProt P48067 (whole entry, looked up): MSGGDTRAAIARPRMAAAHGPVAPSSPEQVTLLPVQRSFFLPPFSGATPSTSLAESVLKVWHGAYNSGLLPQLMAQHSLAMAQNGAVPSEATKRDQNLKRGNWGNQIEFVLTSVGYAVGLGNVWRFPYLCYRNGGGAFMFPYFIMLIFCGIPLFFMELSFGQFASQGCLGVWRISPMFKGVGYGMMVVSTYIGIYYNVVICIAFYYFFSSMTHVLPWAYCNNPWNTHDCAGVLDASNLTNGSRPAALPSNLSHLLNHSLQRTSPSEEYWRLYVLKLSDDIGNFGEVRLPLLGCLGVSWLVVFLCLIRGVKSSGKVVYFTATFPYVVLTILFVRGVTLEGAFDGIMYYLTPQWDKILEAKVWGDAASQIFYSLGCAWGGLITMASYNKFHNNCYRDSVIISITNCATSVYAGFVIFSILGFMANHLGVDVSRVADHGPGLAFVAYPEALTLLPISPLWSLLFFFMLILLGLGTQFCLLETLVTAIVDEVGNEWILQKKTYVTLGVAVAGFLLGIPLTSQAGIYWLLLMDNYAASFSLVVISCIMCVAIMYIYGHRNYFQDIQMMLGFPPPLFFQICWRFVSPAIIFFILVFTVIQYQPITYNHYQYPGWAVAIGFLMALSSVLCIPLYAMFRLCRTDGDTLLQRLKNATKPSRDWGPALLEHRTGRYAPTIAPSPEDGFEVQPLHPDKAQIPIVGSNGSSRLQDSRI
Chain of UniProt Q14160 (whole entry, looked up): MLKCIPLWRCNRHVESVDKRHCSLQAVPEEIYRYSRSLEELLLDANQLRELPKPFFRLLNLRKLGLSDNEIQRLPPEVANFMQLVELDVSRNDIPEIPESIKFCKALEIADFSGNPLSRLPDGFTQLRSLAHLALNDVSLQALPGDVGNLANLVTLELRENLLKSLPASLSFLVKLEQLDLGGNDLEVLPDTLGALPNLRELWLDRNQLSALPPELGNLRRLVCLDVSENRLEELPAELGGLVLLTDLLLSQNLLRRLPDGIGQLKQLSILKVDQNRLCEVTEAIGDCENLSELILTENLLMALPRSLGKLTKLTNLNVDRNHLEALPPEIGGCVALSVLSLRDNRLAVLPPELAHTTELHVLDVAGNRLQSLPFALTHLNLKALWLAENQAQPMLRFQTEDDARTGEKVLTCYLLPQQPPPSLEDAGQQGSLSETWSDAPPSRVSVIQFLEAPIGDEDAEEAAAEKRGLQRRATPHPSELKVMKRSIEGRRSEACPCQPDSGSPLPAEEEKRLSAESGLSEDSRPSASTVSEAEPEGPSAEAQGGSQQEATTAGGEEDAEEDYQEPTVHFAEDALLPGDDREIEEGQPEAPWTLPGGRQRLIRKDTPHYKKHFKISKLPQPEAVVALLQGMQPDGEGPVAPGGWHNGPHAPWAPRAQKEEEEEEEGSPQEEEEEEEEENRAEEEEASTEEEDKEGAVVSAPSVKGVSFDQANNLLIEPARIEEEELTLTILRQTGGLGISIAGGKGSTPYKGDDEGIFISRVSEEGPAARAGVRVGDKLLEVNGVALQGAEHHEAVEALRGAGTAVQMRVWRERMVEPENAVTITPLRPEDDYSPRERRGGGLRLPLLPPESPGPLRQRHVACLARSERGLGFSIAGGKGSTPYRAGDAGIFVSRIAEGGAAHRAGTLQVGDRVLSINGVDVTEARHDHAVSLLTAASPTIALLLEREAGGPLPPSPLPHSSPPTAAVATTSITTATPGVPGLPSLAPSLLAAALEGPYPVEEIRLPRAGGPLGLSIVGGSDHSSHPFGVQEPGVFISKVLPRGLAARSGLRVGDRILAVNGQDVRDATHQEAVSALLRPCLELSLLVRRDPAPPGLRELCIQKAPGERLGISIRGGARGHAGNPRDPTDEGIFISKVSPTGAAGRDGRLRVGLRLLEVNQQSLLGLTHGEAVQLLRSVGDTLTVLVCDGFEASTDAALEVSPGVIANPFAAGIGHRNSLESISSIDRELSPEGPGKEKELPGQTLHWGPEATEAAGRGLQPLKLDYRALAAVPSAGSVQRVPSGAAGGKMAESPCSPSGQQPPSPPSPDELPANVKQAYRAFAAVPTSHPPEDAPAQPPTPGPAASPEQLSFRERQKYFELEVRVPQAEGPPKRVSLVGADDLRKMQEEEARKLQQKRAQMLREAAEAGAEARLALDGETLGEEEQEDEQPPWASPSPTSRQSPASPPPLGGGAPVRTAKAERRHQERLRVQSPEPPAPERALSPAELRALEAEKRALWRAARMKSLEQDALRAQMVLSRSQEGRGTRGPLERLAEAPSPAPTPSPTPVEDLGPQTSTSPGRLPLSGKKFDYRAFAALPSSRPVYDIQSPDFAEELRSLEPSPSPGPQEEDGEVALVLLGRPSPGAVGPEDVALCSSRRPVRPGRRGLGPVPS
Chain of UniProt P05067 (whole entry, looked up): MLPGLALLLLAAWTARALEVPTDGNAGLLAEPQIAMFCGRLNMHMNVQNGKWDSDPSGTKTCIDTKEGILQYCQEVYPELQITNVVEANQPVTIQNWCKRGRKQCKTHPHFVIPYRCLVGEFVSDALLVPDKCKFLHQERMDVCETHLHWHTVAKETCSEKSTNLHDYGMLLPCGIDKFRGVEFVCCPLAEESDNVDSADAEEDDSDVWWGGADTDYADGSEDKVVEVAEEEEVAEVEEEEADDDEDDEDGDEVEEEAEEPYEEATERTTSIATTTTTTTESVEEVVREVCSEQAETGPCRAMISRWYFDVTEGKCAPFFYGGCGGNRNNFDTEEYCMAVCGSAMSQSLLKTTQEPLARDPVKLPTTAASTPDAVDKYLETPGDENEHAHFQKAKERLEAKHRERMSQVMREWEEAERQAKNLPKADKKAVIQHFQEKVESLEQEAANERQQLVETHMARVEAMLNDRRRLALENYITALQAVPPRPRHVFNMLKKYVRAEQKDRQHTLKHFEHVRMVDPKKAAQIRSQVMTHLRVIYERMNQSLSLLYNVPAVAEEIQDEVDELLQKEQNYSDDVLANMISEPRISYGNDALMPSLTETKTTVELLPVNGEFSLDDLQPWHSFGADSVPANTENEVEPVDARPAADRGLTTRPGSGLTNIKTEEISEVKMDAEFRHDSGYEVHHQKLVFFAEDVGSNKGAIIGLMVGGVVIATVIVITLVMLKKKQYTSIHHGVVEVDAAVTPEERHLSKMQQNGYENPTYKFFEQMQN
Chain of UniProt P18848 (whole entry, looked up): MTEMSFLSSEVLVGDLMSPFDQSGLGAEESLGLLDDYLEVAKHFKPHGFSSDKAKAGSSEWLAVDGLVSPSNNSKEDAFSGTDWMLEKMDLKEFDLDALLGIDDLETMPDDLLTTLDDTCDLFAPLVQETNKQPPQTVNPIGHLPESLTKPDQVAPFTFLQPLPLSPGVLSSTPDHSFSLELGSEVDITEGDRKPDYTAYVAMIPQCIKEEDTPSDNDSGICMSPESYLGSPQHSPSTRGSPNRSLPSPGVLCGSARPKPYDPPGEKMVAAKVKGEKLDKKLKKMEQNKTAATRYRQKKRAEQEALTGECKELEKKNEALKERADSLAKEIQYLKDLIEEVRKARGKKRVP
Chain of UniProt Q9ZMY2 (whole entry, looked up): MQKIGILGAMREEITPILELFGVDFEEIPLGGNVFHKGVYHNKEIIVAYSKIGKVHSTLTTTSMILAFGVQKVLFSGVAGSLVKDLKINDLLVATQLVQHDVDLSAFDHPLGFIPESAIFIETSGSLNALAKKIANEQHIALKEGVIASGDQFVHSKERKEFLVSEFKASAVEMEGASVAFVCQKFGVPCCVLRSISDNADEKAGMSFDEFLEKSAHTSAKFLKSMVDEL

Substance	target or system	test	test system	setting	how to read	endpoint	value
STVQLIMQL	HLA class I histocompatibility antigen, A alpha chain, allele A*01:01 (Homo sapiens, UniProt P04439)	conformational ELISA	peptide	concentration not given	relative to: positive control peptide, direction not given	binding score	0.5%
methyl-β-cyclodextrin	SLC6A9 (Homo sapiens, UniProt P48067)	transport activity, [3H]glycine uptake	–	2.5 mg/mL, 1 min, added: glycine 300 µM	higher = more transport	glycine uptake rate	52.3 a.u. and 62 a.u. and 43 a.u. and 61.4 a.u. and 62.4 a.u.
IMQLMPFGC	HLA class I histocompatibility antigen, A alpha chain allele A*24:02	conformational ELISA	peptide	concentration not given	relative to: positive control peptide, direction not given	binding score	7.6%
V[Aib]IA (Aib2; Aib = CC(C)(N)C(=O)O)	APP (Homo sapiens, UniProt P05067)	aggregation, ThT fluorescence	–	24 h, 37 °C, Aβ to peptide ratio 1:5, added: Aβ1–42 2 µM	relative to: Aβ1–42 alone, lower is stronger inhibition	ThT fluorescence	83.9%
KITDFGRAKL	HLA class I histocompatibility antigen, A alpha chain allele A*24:02	conformational ELISA	peptide	concentration not given	relative to: positive control peptide, direction not given	binding score	13.4%
EESDDLYIPAFLRKQLD	Catenin beta-1 (CTNNB1, Homo sapiens, UniProt P35222)	immunoblot	peptide, DLD-1, cytosolic fraction	–	relative to: non-transfected cells	degradation	> 50%
milbemycin oxime	CDR1 (Candida albicans, UniProt Q5ANA3)	binding, microscale thermophoresis	–	10 µM	–	fraction bound	94.3%
IMNSLSLFA	HLA class I histocompatibility antigen, A alpha chain allele A*02:01	HLA-A2 stabilization, peptide titration	peptide, T2	20 h, 37 °C, added: human β2-microglobulin 100 ng/mL	relative to: HIVpol reference peptide, lower is stronger	relative affinity	37.7
PELLSAIEKLL	SCRIB PDZ3 domain	binding, fluorescence polarization	peptide, solution	Scribble PDZ3 domain	–	Kd	100 µM
GSGAGRETEV	human SCRIB PDZ3-4 tandem (MBP fusion)	surface plasmon resonance	peptide	concentration not given	higher = stronger binding	normalised SPR binding response	238 normalised RU
DRVKGKCTLM	SCRIB PDZ3 domain	binding, fluorescence polarization	peptide, solution	Scribble PDZ3 domain	–	Kd	100 µM
Peginesatide	UT7/EPO	tyrosine phosphorylation, LC-MS/MS phosphoproteomics, trypsin, measured: VAV1 tyrosine 844	–	10 nM, 15 min, added: 10 U/mL EPO	relative to: vehicle	phosphorylation level	7.6 fold
GSGAGKETEC	human SCRIB PDZ3-4 tandem (MBP fusion)	surface plasmon resonance	peptide	concentration not given	higher = stronger binding	normalised SPR binding response	0 normalised RU
KRIAYLRKKIAALKKDNANLEKDIANLENEIERLIKEIKTLENEVASHEQ	Cyclic AMP-dependent transcription factor ATF-4 (Homo sapiens, UniProt P18848)	heterodimer thermal denaturation, CD	peptide, 1 M GuHCl	4 µM total peptide, pH 7.4	–	Tm	52.1 °C
6-carboxyfluorescein	SLCO2A1 (Homo sapiens, UniProt Q92959, Y90A)	compound uptake, substrate	HEK293F expressing SLCO2A1 Y90A	50 µM	relative to: wild type	uptake	51.1%
11-deoxycorticosterone	CYP11B2 (human)	substrate binding, stopped-flow global kinetic fitting	purified enzyme	3-state induced fit model, added: equimolar adrenodoxin	–	rate constant k-2	0.981 ± 0.0754 s⁻¹
FNA / CGLSGLGVA-NH2 ([18F]FNA-labelled, C-amide)	–	ex vivo gamma counting	peptide, glioblastoma mouse model, stomach	60 min post injection, added: 500-fold excess CooP blocking	–	tissue uptake	0.36 %ID/g
IMQLMPFGCL	HLA class I histocompatibility antigen, A alpha chain allele A*24:02	conformational ELISA	peptide	concentration not given	relative to: positive control peptide, direction not given	binding score	26.4%
colistin	Salmonella enterica Derby	broth microdilution	clinical isolate RKI 270/14	–	–	MIC	≤ 0.5 µg/mL
MQLMPFGCL	HLA class I histocompatibility antigen, A alpha chain allele A*24:02	conformational ELISA	peptide	concentration not given	relative to: positive control peptide, direction not given	binding score	8.6%
Et-DADMe-ImmA	Aminodeoxyfutalosine nucleosidase (Helicobacter pylori, UniProt Q9ZMY2)	spectrophotometric coupled	–	–	–	forward isomerization rate k3	0.26 ± 0.15 min⁻¹
QLMPFGSLLDY	HLA class I histocompatibility antigen, A alpha chain allele A*02:01	conformational ELISA	peptide	concentration not given	relative to: positive control peptide, direction not given	binding score	6%
BzATP	P2X purinoceptor 7 (P2rx7, Rattus norvegicus, UniProt Q64663, I214A/Q143A)	ion current, agonist, two-electrode voltage clamp	Xenopus oocytes	11 µM	–	normalized current	0.15 and 0.1 and 0.04

Repeated from above:
Substance	target or system	test	test system	setting	how to read	endpoint	value
V[Aib]IA (Aib2; Aib = CC(C)(N)C(=O)O)	APP (Homo sapiens, UniProt P05067)	aggregation, ThT fluorescence	–	24 h, 37 °C, Aβ to peptide ratio 1:5, added: Aβ1–42 2 µM	relative to: Aβ1–42 alone, lower is stronger inhibition	ThT fluorescence	83.9%
KITDFGRAKL	HLA class I histocompatibility antigen, A alpha chain allele A*24:02	conformational ELISA	peptide	concentration not given	relative to: positive control peptide, direction not given	binding score	13.4%
EESDDLYIPAFLRKQLD	Catenin beta-1 (CTNNB1, Homo sapiens, UniProt P35222)	immunoblot	peptide, DLD-1, cytosolic fraction	–	relative to: non-transfected cells	degradation	> 50%
